Experimental data from different studies.
Every numbered part comes from another study and shows a few of its results, in no order.

Set 1 — technique: RNA Bind-n-Seq; form: RNA; medium: in vitro; tested at: 365 nM; reference: no-protein control; reading: higher = stronger binding
Target: RNA binding protein fox-1 homolog 2, RRM domain, GST-SBP tag (RBFOX2, Homo sapiens, UniProt O43251-10, residues 100-194)
Setting: natural RNA segment, single round, ends assumed
All sequences stand within: GGGAGUUCUACAGUCCGACGAUC … UGGAAUUCUCGGGUGCCAA
Residues (chain): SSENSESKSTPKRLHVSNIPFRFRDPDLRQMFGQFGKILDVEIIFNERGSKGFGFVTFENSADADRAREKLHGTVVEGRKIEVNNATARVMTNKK
For `UAGGCCGGUGUCGGUUCUGUUUCUCCCCUUGGCUGCCUGUACGCCCACAGCCUUCUGGCUGCGACAUUAUAGAAUCGGCCGUGUCCCCCCUGGUGGGGGAUUGGGGAUCU`, “RBNS enrichment (R)” read 0.284.
Under “RBNS enrichment (R)”, `GGGUUCCUUCUGUUUCCUAUUUGGGCACUGAGCCAGAGGAUGGAGUUGUCUCCCUGACAAAUAAUGAACCACCCCACCUUUUAGAAUGAAGUAUAAAUGAAGUCAUAAAA` is recorded as 0.465.
`UGUAUGUAGUACAUGUUAUAUGUGUAUAAUCUUUUUACUGAUAGACUGGAAACAUGUCAUCAUUUUUUAGAAAGAAAAAUAAACUUGGUUUUUCCAUAGAUUUCCUACCA`: “RBNS enrichment (R)” 0.513.
For `AUAGAGAAACAGCUCCUCGCCUCUUCCCAACAACGCAAAUUAUGAGCAGCUCCUUGAAGAGAUUUACCUUCAGCUUAUUUGGUAACCACUGCUAAUAACUAAAAUGUUCU`, “RBNS enrichment (R)” read 0.389.
`CACAAAGGCCUUGAAGAGUGGACAUUCCCAGGUCCCUGGCACCUUCCCUUGAGCCAGCUCCAUUGCUACUUAUUCAUGUGACUGAAGCUGACCACAGGCAGCUGGCAGGU` — result for “RBNS enrichment (R)”: 0.34.
For `UGGCUUUAGGUGAGCCUUCACCUUUUGGUGCCUUCGUUUCCUCAUUUAGCACCUACCUCCUAGAGCUGUUUUGGGAGUCAAAUGCGCUGACGUAUAUAAAGUGCUUUGCA`, “RBNS enrichment (R)” read 0.665.
`UCUGAGGAUUACAGCUCUGCCCAGGCCCUUUCUACUUUCCCUGCCUGCCUCCCUCCCCCUGCUAGAAGUAGUUUCUGAUUUCCCUGAAUGAAAGAUAGUGAUCUUUUAGG` — result for “RBNS enrichment (R)”: 1.56.
Under “RBNS enrichment (R)”, `ACGUCCGGCACGUAACUGAUCGGAGCAUUCUGGGAAGAAGUAAUUUAUUCCUUUUCGGCAGCCGAAUAAAAAAAAAUUUAAAAAAAUGUGCGAGCUAAUAUGGCAAAACA` is recorded as 0.774.
`CUGUCUGAUCGUGAAGCACCUGAAUUUACAGAAGAUGCAGAAAGCCUCGUUUUCUCUGCGUGGUUCAGCUACUUUCCAUUUGGUAUUAUGCACUCAAACUUAACAUUUAU` — result for “RBNS enrichment (R)”: 0.411.
`GACAUGAGAUGUAUUUAAGGAAAGUAGUCACUAUUCAAAGAACAAAUUAAAGUGUUUAUAACAAACUUGAACCCUUACUGUGUUGUGCUCUGUAAACACCCGGUGGCUAC`: “RBNS enrichment (R)” 0.348.
`UAGGGGCCAGAGCACCUCUAGGCUGAUUCCUCACCUUUUGGGUCUGAGGGCAGCUGCUCUCCCAGCAUGUGCUGGCCACUCCAUCCCAAAAGCCCCCAUCAGAACUGCUG`: “RBNS enrichment (R)” 1.38.
`AAUCUUCAUUUGACACCUUAAUACAUUUCUGACUGUUCUUAAAACAGUGGGGAUGCCUAUAUUUUCCUUGAGUUUUUGUGACUGACUUUGGCUAUAUAUACCUUUCUGGG` — result for “RBNS enrichment (R)”: 0.455.

Set 2 — technique: RNA Bind-n-Seq; form: RNA; medium: in vitro; tested at: not given; reference: input RNA pool; reading: higher = stronger binding
Target: RING finger protein unkempt homolog, zinc fingers 1-6, GST-SBP tag (UNK, Homo sapiens, UniProt Q9C0B0, residues 30-357)
Setting: RNA with constant flanks, human and mouse sites, ends assumed
All sequences stand within: GGGAGUUCUACAGUCCGACGAUC … CAACAGAGGAUUGAGCAUCA
Target sequence (chain): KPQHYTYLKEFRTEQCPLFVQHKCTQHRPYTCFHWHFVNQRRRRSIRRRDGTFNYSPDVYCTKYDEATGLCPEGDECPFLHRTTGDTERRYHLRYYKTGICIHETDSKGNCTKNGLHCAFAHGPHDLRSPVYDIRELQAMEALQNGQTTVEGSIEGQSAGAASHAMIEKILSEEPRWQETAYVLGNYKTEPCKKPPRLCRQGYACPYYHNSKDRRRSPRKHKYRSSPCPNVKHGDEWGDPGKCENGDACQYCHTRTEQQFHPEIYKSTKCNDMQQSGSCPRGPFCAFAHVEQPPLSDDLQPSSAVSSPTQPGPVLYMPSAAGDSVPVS
With `AGUUUUUCUGCUUCCAAAAUAUUUAUUUCUGCAUUAGCCAUGGAAGGACAGCAACUUUUAGUAGCAUAUCCUUGCGCUUUGUUAUAUGGAGUCUUUGCCCUGAUUUCCGUCUUUUGAAAA` the bound/input enrichment was 0.296 ratio.
`AGACACAAGCUCUUGGUGCUGUCUGGGAAAGGCGGCGUUGGGAAAAGCACGUUCAGUGCACACCUCGCCCACGGCCUAGCGGAGGAUGGAGAUACACAGGUUGCUCUUCUGGACAUCGAU` has a bound/input enrichment of 0.0827 ratio.
The bound/input enrichment of `AAAAUUUAUUUCAUGCCCUGGACUCCCUAUCGUACCGAUACUUUAAUAGAAUAUGCUUCUUUAGAAGAUUUCCAAAAUAGUCGCCAAACAACAACAUAUAAACUUCCAAAUCGAGUAGAU` is reported as 8.88 ratio.
`CGGAUCUUUGGUGAAGUGGCCAGGUCUACUGACUCAAAGUCCAUGAAAGUGGUGAGCCUGUUUAGCGAGCAGCCCUUGGCCAAGAAGAAAGAGACUUAUGACUGGUAUCCAAAUCACAAC` has a bound/input enrichment of 0.0757 ratio.
For `GGGGACUCUAGACACCAGGGUAUGGGCUGAGGACUCCUAAUAUUGCCAAAGGAUUCAACUUAUUUAACAACCCCUAUUAUCCCCGCCCCCCUGUCCCUUAAAAGAGACGAAUGGGGCGGG`, the bound/input enrichment was 0.177 ratio.
For `AGCCUUAUCCCUGGUCAUUUGGAUUUUCAGUUUGCUUUUUUCUUUUUUUCCCCUCCAAACUCCUUUUCCUUGGCCAAGCCUUCAUGCUUCCCCCUUUCCAUAUUAUAAUCUCAUUUGAUU`, the bound/input enrichment was 1.58 ratio.
For `UAGUGGCAGUUCAUUGCAACAAAUGGCCUUAAGAUGCUGGAGCCUCAAGUUCAAGCAGUCCGAUCACCAGUUCCUCCAUCAGAGCAAUGUCUUCCAUCACAUCAACAACAUCUUGUCGAA`, the bound/input enrichment was 0.107 ratio.
`UAUAAUGUAUCUUAUGUAUGUGCUUUAUAUUGUUAUUUGUGUAUACAUUAAAAUAAUUCUGAAUUAUUUAAUCUGAUAUGUUGUAUUCUGUAUCUUGAAAUUUUUGUUUCCUUGAAACAU` has a bound/input enrichment of 0.205 ratio.
With `GACAGGGUCGGGGACAUCCACAUCUUGGAAGUCACGAAUAAUCUAGAACAUAAGACCUCUUUUAGUAUUUCCAAUUUUCUCAACAAGAGCAGGGGGAGUAAUUUCAGUGCAAGUCAGAGC` the bound/input enrichment was 8.39 ratio.
With `CUAGCUCCAGGUUAGGCCGAGCUUUGCGGGAAAGCAGCGGACUUGAAAAUACUGGAAAUCUGUCCGGAUCCAAAUUAUUUUGCAAGCCAGAUGAGUAACCAGAGGGCAUGAAAGGUUGAG` the bound/input enrichment was 0.602 ratio.
For `AUUUCACAAAGCUCCCGAAUCUGGCUUUGUCCUCACUGUCGGAGGUCAGAGAAGCCUCCAUUAGAGAAAAUUCUGCCUCUGCUGGCCUCCCUACAGCGUAUACGAGUUCGUCUUCCUGAA`, the bound/input enrichment was 0.509 ratio.

Set 3 — technique: EMSA with sequencing; form: double-stranded DNA, one strand shown; medium: in vitro; tested at: 10 and 20 nM; reference: negative control set to 0; reading: higher = stronger binding
Target: Hepatocyte nuclear factor 3-alpha (Foxa1, Mus musculus, UniProt P35582, residues 1-468, full length assumed)
UniProt P35582, sequence (whole entry, looked up): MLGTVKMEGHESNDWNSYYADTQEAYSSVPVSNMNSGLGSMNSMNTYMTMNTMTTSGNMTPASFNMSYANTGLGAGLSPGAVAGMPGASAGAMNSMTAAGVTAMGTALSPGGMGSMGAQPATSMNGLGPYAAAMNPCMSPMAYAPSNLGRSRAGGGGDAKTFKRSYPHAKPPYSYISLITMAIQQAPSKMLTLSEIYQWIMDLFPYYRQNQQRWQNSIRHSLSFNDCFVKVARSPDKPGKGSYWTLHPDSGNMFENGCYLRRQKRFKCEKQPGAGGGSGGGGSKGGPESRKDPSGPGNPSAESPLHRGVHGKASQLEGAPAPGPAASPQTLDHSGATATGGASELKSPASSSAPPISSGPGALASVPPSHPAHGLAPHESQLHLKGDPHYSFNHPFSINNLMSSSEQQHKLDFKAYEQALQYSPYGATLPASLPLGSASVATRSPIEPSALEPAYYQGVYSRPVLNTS
Setting: whole designed probe, mean of two concentrations, ends assumed
All sequences stand within: GTGAGCGGTGCCCATTGATGGGGAAC … TTTCACTGGGATCGTGGGGAC
`ATCTTCCCCCTCTTCCTTGCCCCACCAGCTCACCTTCCCGGGTATCTGCAAATAAGGAAAATAAATAAAGCCGGCATTCGTTAACCCTCTTCTGGCGCAAACTGCACATTGGTCTGGATGAATCATGGTCCTTTGGCGACGCCAGGCTCCGGGAGAGCAAAGCACCGTGTCAGGGCCATGATCCGGGGTGGCC` — result for “normalised bound fraction”: 0.319 ratio.
For `TCAGGTTGCAGTGAGCTCTGATCGTGCCACTGCACTCCAGCCTGTGACACAGAGCAAGGGCCTGTCTCTAAAAACAAAACAAAACAAAGCAAAACAAACATGAGAAGTGCTGATTGTTACCTTGCAAAGAGGTTTCATTCGGCAGCAAGTTGAAATTATCTACTGGTTTGTACAACAGCTAGCACTTCCTCTT`, “normalised bound fraction” read 0.563 ratio.
`AGGTGAATTGGCTGCTTCCATCCTGGCTTGGAACTTCAGACATAGAAGCCTTGGGACTTTCTCAGGACTTTCTCCTGACTCATGCCAGATGCTTGTTTGCTGAATCTCTGTGGATCACGTGACCTTAGCCAGGGATGTTGGTGAAACTGTGTGTTGGTCTAGGTACCTAGCCCATGCTAGGTGCTCATCGAAT` — result for “normalised bound fraction”: 0.0744 ratio.
`GGCCTTTCAATATGCTATAGTGTCTATCAGTTTCTTTTAGGCTTATTCTATCACAATTTTCATTCTCTATTAATCCCCTAAGTGTCTCTATAAGTAATTTACTAGATTATTTGGAAAGTTGCTGTTTAAAGAACTACTTGTAAGTTCAAGTGGCCTTTGGAGTGTGAATAAGTACCCATAATTCATCTATGAT`: “normalised bound fraction” -0.0122 ratio.
Under “normalised bound fraction”, `TCCTTTATCCCAACATGTTTATACAGACAAAACCAGGTTAAAATCGACACAAGGTCAACTTGAAGAGGAAGGTAAATGGGGAGACGTCACAAAATAAACATGAAGTCTTGTGTACAAGCATCTGCAGAAGAGTTCAGCCTCACCACTTGGGTAATGCTGTTGGAATGTGGTCTGGGTTCACTGTATTTGAATG` is recorded as 0.378 ratio.
For `ATCTTCCCCCTCTTCCTTGCCCCACCAGCTCACCTTCCCGGGTTATTTGCACAAAGGAAAATAAATAAAGCCGGCATTCGTTAACCCTCTTCACGCGCATACTGCTGTTTGCTCTGGATGAATCATGGTCCTTTGGCGACGCCAGGCTCCGGGAGAGCAAAGCACCGTGTCAGGGCCATGATCCGGGGTGGCC`, “normalised bound fraction” read 0.368 ratio.

Set 4 — technique: protein binding microarray; form: double-stranded DNA, one strand shown; medium: in vitro; tested at: not given; reference: not given; reading: higher = stronger binding
Target: Histone acetyltransferase KAT6A, both winged helices, GST fusion (KAT6A, Homo sapiens, UniProt Q92794, residues 1-181)
Setting: 8-mer, flanks averaged, mean of 2 arrays, mostly near background
Residues (chain): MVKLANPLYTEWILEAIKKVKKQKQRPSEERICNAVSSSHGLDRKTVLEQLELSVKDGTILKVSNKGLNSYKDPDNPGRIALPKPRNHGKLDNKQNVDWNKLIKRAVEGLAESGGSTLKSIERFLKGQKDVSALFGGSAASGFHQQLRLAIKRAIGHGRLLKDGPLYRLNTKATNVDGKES
The E-score of `CATCGTTC` is reported as -0.0666.
The E-score of `GCAATAAC` is reported as 0.0351.
With `CTAAACCC` the E-score was -0.00624.
The E-score of `CTCTGGGC` is reported as -0.127.
`AACGGTAC` gave an E-score of 0.195.
With `AGGGGGCG` the E-score was -0.015.
With `CCATTGCG` the E-score was 0.164.
`AGCATACC` has an E-score of -0.145.
`CCGCGTCA` has an E-score of 0.218.
The E-score of `CAGGACTG` is reported as -0.167.
`AGACTGGC` has an E-score of -0.12.
`CCCATCGA` gave an E-score of -0.115.
The E-score of `CAGGCGCA` is reported as 0.133.
The E-score of `CTCCATAA` is reported as -0.18.
`CAACATAC` gave an E-score of 0.0334.
`AGCATGGC` has an E-score of -0.124.
`AAACCGTG` gave an E-score of 0.0584.
`GTTCAGTA` gave an E-score of -0.0302.
With `CCGAACGG` the E-score was 0.256.
The E-score of `AGCGGACC` is reported as 0.129.
For `ACAACACC`, the E-score was -0.0279.
With `CACCACCC` the E-score was 0.0186.

Some of these lines once more (set 4):
The E-score of `CAGGCGCA` is reported as 0.133.
The E-score of `CTCCATAA` is reported as -0.18.
`CAACATAC` gave an E-score of 0.0334.
`AGCATGGC` has an E-score of -0.124.
`AAACCGTG` gave an E-score of 0.0584.
`GTTCAGTA` gave an E-score of -0.0302.
With `CCGAACGG` the E-score was 0.256.
The E-score of `AGCGGACC` is reported as 0.129.
